# Results gathered from unrelated publications.
# Parts stem from different laboratories: compare values within a part only. Substitutions count along the parent as printed.

# Block 1 — technique: RNA Bind-n-Seq; molecule type: RNA; sample: in vitro; concentration: 200 nM; notes: whole 134-nt RNA, ends assumed; added: 150 mM LiCl; relative to: input library; reading: higher = stronger binding; library: 7-deaza-guanosine replaces G
# Target: Ras GTPase-activating protein-binding protein 1, full length (G3BP1, Homo sapiens, UniProt Q13283)
# UniProt Q13283, sequence (whole entry, looked up): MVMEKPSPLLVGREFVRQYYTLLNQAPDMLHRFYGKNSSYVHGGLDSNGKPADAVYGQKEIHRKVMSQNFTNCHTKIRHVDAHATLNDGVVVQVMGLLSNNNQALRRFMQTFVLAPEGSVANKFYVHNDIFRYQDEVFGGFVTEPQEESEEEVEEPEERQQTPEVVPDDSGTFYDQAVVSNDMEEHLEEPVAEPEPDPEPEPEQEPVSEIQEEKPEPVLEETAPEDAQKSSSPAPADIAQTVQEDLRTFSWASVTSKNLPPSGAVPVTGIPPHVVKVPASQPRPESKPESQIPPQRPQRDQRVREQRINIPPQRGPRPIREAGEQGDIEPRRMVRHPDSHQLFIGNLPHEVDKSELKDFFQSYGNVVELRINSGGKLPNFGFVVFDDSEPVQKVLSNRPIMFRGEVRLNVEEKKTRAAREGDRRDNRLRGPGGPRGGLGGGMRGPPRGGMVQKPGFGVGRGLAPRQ
Strand,log2 enrichment
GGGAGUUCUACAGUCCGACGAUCUGGGAGGUGGAUUUUGUUUAUUUUUUUAGCUCAUUGCCAGGGGUGGGAAUUUUUUUUUAAUAUGUGUCAUGAAUAAAGUUGUUUUUGAAAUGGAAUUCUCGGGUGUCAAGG,0.406
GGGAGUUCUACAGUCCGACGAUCCACAGACAACACGCACCCACACAGACACAGAGGGAAGGGGUUGGGAUGGGGACAGGGUGCACAGCAGGGCGGGGGAGGACCCCAGCCCCUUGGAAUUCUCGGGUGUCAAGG,0.881
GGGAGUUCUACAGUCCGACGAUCUGGCCCUGGUGGCAUGCGGAGAGGAAGAGGUGGCCUCAUGGAUCGUGGUGGUCCCGGUGGAAUGUUCAGAGGUGGCCGUGGUGGAGACAGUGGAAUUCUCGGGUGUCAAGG,0.096
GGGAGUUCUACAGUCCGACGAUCUAACUUUAGAGGAGGAUCUGAUGGAUAUGGCAGUGGACGUGGAUUUGCGGAUGGCUAUAAUGGGUAUGGAGGAGGACCUGGAGGUGGCAAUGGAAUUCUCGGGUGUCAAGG,-0.00761
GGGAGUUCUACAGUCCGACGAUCUCCUGUGCUACACAUCGUAUGUACCGAAUCGGUUUUUUUGGUUUUUUUGGUUUUUUUGGGAAAGUAUUAUGUUACGCCGUUCGGAUCUGCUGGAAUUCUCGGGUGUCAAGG,0.248
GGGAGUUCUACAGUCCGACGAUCUCAAGUCCUGUGCUACACAUCGUAUGUACCGAAUCGGGUGGGUUUUUGGGUGGGAAAGUAUUAUGUUACGCCGUUCGGAUCUGCACUUCCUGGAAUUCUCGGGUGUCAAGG,0.0739
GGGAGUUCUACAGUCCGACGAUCUGGCCCUGGUGGCAUGCGGGGAGGAAGAGGUGGCCUCAUGGAUCGUGGUGGUCCCGGUGGAAUGUUCAGAGGUGGCCGUGGUGUAGACAGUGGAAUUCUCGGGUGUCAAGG,-0.634
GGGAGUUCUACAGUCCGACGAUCUGGCCCUGGUGGCAUGCGGGGAGGAAAAGGUGGCCUCAUGGAUCGUGGUGGUCCCGGUGGAAUGUUCAGAGGUGGCCGUGGUGGAGACAGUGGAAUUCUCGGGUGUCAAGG,0.0506
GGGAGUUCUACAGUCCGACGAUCAAGUCCUGUGCUACACAUCGUAUGUACCGAAUCGGGGUUUGGGUUUGGGGUUUGGGGAAAGUAUUAUGUUACGCCGUUCGGAUCUGCACUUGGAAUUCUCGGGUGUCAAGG,-0.34
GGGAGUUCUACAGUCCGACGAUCUCCUCAAGUCCUGUGCUACACAUCGUAUGUACCGAAUCGGAAAGGAGGUGGAAAGUAUUAUGUUACGCCGUUCGGAUCUGCACUUCCAGCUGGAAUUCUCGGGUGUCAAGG,-1.2
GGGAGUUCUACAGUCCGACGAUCCCUGUGCUACACAUCGUAUGUACCGAAUCGGGGAAAGGGGAAAAAGGGGUUUUUUUGGGGAAAGUAUUAUGUUACGCCGUUCGGAUCUGCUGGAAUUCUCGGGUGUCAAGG,0.623

# Block 2 — technique: DHFR PCA, deep sequencing; sample: yeast; added: (+)-ABA 4.8 µM; relative to: wild-type fitted maximum; reading: higher = stronger binding
# Target: ABI1, truncated, D143A, DHFR fusion (Arabidopsis thaliana)
# Notes: methotrexate growth selection, single substitutions
# Starting sequence: PYL1, truncated, DHFR fusion (Arabidopsis thaliana); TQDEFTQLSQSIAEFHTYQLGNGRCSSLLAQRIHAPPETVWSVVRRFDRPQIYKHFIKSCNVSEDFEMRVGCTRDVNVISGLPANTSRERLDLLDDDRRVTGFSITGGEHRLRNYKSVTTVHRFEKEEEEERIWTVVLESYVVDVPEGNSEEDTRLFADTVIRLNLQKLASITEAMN; partner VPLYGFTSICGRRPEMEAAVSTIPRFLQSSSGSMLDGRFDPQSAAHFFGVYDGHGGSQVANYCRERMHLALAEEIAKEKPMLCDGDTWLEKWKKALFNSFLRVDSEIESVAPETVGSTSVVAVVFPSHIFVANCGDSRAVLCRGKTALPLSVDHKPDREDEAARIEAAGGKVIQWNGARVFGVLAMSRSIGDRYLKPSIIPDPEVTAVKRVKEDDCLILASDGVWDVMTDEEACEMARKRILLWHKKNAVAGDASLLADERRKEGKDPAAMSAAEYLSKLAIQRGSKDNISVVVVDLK
Substitution,relative binding score [%]
T173F,19.2
E14Y,9.03
S59A,59.8
S42G,69.8
R46S,49.5
V76H,1.61
E4T,68.2
S11E,86.7
R24G,16
T160Q,10.9
G102K,11.4
D144W,-6.22
E4H,62.7
Q19Y,54.4
P50N,-1.7
G21H,63

# Block 3 — technique: RNA Bind-n-Seq; molecule type: RNA; sample: in vitro; concentration: not given; relative to: input RNA pool; reading: higher = stronger binding
# Target: RING finger protein unkempt homolog, zinc fingers 1-6, GST-SBP tag (UNK, Homo sapiens, UniProt Q9C0B0, residues 30-357)
# Notes: RNA with constant flanks, human-mouse chimeric sites, ends assumed
# Construct (chain): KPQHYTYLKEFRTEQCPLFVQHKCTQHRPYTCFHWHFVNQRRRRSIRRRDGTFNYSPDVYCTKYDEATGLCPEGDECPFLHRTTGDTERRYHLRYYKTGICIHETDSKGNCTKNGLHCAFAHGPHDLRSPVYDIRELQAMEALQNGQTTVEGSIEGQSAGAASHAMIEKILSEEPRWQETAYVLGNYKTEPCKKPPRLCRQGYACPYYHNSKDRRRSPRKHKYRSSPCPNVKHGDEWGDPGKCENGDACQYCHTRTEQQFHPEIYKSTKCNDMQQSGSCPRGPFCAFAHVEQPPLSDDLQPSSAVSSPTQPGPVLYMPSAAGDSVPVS
Strand,bound/input enrichment [ratio]
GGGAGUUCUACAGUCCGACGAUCUCUGGCCACACUCGUGUAUAUGGUGUGUGCUUUGUGGACACUUCACUGGGCAAGUUUUUCAUCGGCCAGUUUUCGGAUGACCGCCACUGUUCCAGAUUUAGGACGCUAGUGGCUCACUAUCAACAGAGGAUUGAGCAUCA,0.203
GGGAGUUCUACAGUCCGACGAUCCACAGAGGCACCACCCCCCCCUCCUCCUUUCCACACCUGCAAACUCUUUUACUUGGGCUGAAUAUUUAGUGUUAAUUCAUCUCAGCUUUGAGGGCUCCUGUGGCAAAUUCCCGGAUUAAACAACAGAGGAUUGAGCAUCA,1.09
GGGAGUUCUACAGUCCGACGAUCAUCCAGUACUCGAAUCACAAAGAACUAAAGACAGAUAAUACAUUAAACCAACGUGCUCAAGUAGUUCUUCAAGCUGUGACAGCUGUCCAGACAGCAAAUACACCUCUUAGUGGCACCACACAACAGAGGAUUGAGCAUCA,0.394
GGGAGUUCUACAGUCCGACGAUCCUGGGCUUCUCUUUUCUUUCUUUCCUUUAGGAAAAGCCUAAAGAUUAGGUUGUAAGAAAAACAGAAGCCAUGUUUCGAAGACCUGUGUUACAGGUAUUUCGUCAGUUUGUAAGACAUGAGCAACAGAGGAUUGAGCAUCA,0.185
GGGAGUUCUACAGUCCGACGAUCUCCCAAAUCCAGCAGCUAGAAGGAGCCUUGAGACAAACACUCCACACACAGGGAAGGCGAUAACAUUGUACAUUGGUUUACAUUUUUUCCCCCUGUGUUUUCUAGGGGAGGUCAUAGUGCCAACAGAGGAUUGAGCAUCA,0.447
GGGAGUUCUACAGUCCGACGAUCGAUAGGAAAAGCUUGUUGGAGACCCGCUUGCAUGUCACUGGCAGAGACCUGAGGUGUCAAAUAGCUGAAACUUUCGGAUUUCAAGAAAAUUACAUCAAGAUCGUAAUAAAUAAGAAACAGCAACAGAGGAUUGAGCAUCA,0.256
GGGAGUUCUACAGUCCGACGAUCGAGCGUCUCGCUCGAACUGGGAUCAUCGUGACCACGAGUGAGGCUGUCCUCCUACAGCUGGUGGCUGACAAAGACCACCCGAAGUUCAAGGAAAUUCAGAACCUAAUUAAGGCGAGUGCCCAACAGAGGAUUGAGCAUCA,0.0877
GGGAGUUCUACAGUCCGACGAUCUUCAAAGAAAAGGGCAGCUGUGUCAUUACUUGGGAGACUCUGGGGGAGGGAAAUUCUGUUCUUUUGUUUAAUUUUCCCCCAAAUGAAGCCAAAGUGUGUGUUGAAGAAGGAAGAAUGAAUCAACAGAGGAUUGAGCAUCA,0.224
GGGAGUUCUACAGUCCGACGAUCUCUGGUCACACUCGUGUAUAUGGUGUGUGCUUUGUGGACACUUCACUGGGCAAGUUUUUCAUCGGCCAGUUUUCGGAUGACCGCCACUGUUCCAGAUUUAGGACGCUAGUGGCACACUAUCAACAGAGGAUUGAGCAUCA,0.205
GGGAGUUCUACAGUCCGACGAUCCUGUGACCACAAGAUCCUACCUGAGUGGCAGCUGAAGUUGACUCCCUCUCCUUGCCUGAACCCCCCCCCACUGCCCCCCCAUCCCCCGCAGAAUUCCGAGAUGUUGCCUCUGCACGGUUCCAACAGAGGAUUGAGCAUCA,1.32

# Block 4 — target: CCND2, cyclin fold, Cln2 fusion (human); technique: yeast growth competition, sequencing; sample: yeast; notes: weak parent motif; relative to: not given; reading: higher = stronger binding
# Starting sequence: MICAL3 docking peptide (human); LQLRRQLSFSEDS
Substitution,normalised enrichment score
LQLRRHLSFSEDS [Q6H],-0.0114
LQLRWQLSFSEDS [R5W],-0.0935
LQLRRQLSTSEDS [F9T],0.0964
LQLRRQLSFEEDS [S10E],0.282
LQLRRKLSFSEDS [Q6K],0.381
LQLRRQLSFSEQS [D12Q],0.173
LQLRRQLDFSEDS [S8D],0.109
LQLRRQLSFGEDS [S10G],0.489
LQLRRQQSFSEDS [L7Q],-0.0208
LQLRRQLGFSEDS [S8G],0.0228
LQLRRRLSFSEDS [Q6R],0.997
LQLRRQLRFSEDS [S8R],-0.371
LQLRRQLCFSEDS [S8C],0.0714
LQLRRQLSFQEDS [S10Q],-0.0521
LQLRRQLSLSEDS [F9L],0.113
LQLRVQLSFSEDS [R5V],0.181
LQLRRQLSESEDS [F9E],0.152
LQLRRQLSFSEFS [D12F],0.206
LELRRQLSFSEDS [Q2E],0.119
LQLRRQESFSEDS [L7E],0.241
LQLRRQLNFSEDS [S8N],0.11
LQLRRQLSFSNDS [E11N],0.19

# Single results of other studies — technique: cross-linking MS
Molecule,partner,test system,setting,endpoint,result
"PTBP1 (Homo sapiens, UniProt P26599)","MATR3 (Homo sapiens, UniProt P43243)",,hits only,interaction screen,cross-linked
"UQCRQ (Homo sapiens, UniProt O14949)","UQCRC2 (Homo sapiens, UniProt P22695)",cell fractions,added: DMTMM,cross-linked residues,G2 to D153
"NDUFB5 (Homo sapiens, UniProt O43674)","NDUFA11 (Homo sapiens, UniProt Q86Y39)",cell fractions,added: DSSO,cross-linked residues,K158 to K138
"COQ3 (Homo sapiens, UniProt Q9NZJ6)","COQ6 (Homo sapiens, UniProt Q9Y2Z9)",cell fractions,added: DSSO,cross-linked residues,K196 to K64

# For quick reference, copied from above (block 4):
Substitution,normalised enrichment score
LQLRWQLSFSEDS [R5W],-0.0935
LQLRRQLSTSEDS [F9T],0.0964
LQLRRQLSFEEDS [S10E],0.282
LQLRRKLSFSEDS [Q6K],0.381
LQLRRQLSFSEQS [D12Q],0.173
LQLRRQLDFSEDS [S8D],0.109
